Earlier results that unrelated publications cite.
Each numbered part shows a few of the values that one paper quotes. ± marks the error that the study gave.

Sample 1
SMILES: CO/N=C(\C(=O)N[C@@H]1C(=O)N2C(C(=O)O)=C(COC(C)=O)CS[C@H]12)c1csc(N)n1
organism	strain	MIC
Acinetobacter baumannii	clinical isolate RKI-No_4/15	> 16 µg/mL
Klebsiella pneumoniae	clinical isolate RKI-No_107/15	≤ 1 µg/mL
Acinetobacter baumannii	clinical isolate RKI-No_12/16	> 16 µg/mL

Single results of other studies
Compound	tested on	test	test system	conditions	endpoint	result
Fc1ccccc1Cc1nc(-c2nc(C(F)(F)F)n[nH]2)cn2ccnc12	–	equilibrium dialysis	monkey plasma	1 and 10 µM	plasma protein binding	98.7%
CC1COc2ccccc2N1C(=O)C(Cl)Cl (stereo not drawn)	–	CYP metabolism	mouse, male, liver microsomes	together with: NADPH	intrinsic clearance	1.1 mL/min/mg protein
CCC(CC)COC(=O)[C@H](C)N[P@](=O)(OC[C@H]1O[C@@](C#N)(c2ccc3c(N)ncnn23)[C@H](O)[C@@H]1O)Oc1ccccc1	SARS-CoV-2	viral replication	Calu-3	–	EC90	700 ± 200 nM

A few entries again (single results of other studies):
Compound	tested on	test	test system	conditions	endpoint	result
CCC(CC)COC(=O)[C@H](C)N[P@](=O)(OC[C@H]1O[C@@](C#N)(c2ccc3c(N)ncnn23)[C@H](O)[C@@H]1O)Oc1ccccc1	SARS-CoV-2	viral replication	Calu-3	–	EC90	700 ± 200 nM
